Results collected from several papers.
Values joined by “and” are separate records of one study, mostly repeats; a detail may differ. ± marks the error that the study gave.
MAPK8: Mitogen-activated protein kinase 8 (MAPK8, Homo sapiens, UniProt P45983)
Chain of UniProt P45983 (whole entry, looked up): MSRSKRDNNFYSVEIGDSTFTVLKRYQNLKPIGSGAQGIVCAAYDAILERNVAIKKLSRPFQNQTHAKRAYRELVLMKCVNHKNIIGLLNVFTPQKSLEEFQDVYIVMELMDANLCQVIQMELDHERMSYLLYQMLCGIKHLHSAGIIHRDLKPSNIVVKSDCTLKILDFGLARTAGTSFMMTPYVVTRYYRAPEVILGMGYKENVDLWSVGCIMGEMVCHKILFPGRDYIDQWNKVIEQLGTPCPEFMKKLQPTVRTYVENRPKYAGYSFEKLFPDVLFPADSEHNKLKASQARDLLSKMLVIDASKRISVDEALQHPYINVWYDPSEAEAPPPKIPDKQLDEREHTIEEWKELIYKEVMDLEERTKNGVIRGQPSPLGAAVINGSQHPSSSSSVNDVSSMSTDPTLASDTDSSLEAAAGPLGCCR
CDK6 with cyclin D2: Cyclin-dependent kinase 6, with cyclin D2 (CDK6, Homo sapiens, UniProt Q00534)
Chain of UniProt Q00534 (whole entry, looked up): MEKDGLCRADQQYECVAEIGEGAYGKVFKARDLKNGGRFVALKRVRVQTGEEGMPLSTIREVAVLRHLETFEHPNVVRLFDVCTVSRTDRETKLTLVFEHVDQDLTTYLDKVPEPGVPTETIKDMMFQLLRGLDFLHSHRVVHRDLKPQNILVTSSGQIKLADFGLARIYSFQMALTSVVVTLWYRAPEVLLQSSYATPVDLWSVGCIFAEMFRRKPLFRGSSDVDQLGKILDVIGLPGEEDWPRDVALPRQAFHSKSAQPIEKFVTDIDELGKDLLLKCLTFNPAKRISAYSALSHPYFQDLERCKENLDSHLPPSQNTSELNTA
IL1RL2: Interleukin-1 receptor-like 2 (IL1RL2, Homo sapiens, UniProt Q9HB29)
Chain of UniProt P28482 (whole entry, looked up): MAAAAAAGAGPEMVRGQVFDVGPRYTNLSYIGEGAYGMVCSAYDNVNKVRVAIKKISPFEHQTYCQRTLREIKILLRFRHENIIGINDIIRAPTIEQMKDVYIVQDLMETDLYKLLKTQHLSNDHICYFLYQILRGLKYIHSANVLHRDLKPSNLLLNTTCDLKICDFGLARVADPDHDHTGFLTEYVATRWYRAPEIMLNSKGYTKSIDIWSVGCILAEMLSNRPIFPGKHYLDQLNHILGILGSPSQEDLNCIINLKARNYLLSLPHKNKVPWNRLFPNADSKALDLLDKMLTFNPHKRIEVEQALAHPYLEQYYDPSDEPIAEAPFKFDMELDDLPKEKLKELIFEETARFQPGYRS
Chain of UniProt Q9HB29 (whole entry, looked up): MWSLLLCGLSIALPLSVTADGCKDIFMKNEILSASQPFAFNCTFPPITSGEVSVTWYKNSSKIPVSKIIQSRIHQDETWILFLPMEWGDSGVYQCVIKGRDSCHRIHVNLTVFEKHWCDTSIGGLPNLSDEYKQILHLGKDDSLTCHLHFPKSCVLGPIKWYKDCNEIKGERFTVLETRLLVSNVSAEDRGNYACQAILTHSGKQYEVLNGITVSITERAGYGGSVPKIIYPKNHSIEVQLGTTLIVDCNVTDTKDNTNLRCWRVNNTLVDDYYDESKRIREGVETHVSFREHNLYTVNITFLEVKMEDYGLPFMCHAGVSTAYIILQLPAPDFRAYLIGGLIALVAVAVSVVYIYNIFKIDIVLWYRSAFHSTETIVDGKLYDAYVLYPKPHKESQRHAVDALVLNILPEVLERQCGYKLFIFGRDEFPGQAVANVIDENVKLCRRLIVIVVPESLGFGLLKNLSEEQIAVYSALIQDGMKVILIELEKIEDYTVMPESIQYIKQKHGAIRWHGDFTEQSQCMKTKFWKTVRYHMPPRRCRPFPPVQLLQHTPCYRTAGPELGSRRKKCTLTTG
Chain of UniProt P07237 (whole entry, looked up): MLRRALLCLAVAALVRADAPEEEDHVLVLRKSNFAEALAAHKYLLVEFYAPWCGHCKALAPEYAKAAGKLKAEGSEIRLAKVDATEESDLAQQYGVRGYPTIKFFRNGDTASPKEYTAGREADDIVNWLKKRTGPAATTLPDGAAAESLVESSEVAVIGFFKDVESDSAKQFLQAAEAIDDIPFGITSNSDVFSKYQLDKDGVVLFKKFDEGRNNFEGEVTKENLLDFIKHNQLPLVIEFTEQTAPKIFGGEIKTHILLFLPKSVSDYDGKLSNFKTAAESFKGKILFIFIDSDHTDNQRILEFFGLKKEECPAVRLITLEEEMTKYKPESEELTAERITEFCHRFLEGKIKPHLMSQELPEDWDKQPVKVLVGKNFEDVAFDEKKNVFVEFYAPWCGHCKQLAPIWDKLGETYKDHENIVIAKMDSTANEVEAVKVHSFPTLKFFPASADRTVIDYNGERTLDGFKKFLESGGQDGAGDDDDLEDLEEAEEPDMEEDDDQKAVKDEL
Chain of UniProt P43235 (whole entry, looked up): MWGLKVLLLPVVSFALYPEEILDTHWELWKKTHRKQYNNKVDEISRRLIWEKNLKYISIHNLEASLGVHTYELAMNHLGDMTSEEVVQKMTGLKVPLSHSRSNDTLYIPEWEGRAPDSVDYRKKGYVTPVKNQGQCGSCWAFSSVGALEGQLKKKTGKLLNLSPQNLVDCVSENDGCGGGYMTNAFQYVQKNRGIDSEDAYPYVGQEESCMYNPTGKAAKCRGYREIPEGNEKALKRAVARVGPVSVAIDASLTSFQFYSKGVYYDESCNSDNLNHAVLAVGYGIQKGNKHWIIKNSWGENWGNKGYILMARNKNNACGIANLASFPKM
Chain of UniProt P47809 (whole entry, looked up): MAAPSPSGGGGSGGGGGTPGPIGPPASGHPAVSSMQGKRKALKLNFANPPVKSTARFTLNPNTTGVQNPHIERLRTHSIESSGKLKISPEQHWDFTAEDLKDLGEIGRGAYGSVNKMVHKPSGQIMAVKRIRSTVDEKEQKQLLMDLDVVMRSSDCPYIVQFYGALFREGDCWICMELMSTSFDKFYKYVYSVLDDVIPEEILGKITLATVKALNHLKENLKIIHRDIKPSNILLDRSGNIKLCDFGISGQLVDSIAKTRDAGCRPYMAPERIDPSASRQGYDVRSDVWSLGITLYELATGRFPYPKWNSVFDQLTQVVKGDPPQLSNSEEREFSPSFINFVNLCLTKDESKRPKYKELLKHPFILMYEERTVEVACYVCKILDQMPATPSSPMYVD
Chain of UniProt P06873 (whole entry, looked up): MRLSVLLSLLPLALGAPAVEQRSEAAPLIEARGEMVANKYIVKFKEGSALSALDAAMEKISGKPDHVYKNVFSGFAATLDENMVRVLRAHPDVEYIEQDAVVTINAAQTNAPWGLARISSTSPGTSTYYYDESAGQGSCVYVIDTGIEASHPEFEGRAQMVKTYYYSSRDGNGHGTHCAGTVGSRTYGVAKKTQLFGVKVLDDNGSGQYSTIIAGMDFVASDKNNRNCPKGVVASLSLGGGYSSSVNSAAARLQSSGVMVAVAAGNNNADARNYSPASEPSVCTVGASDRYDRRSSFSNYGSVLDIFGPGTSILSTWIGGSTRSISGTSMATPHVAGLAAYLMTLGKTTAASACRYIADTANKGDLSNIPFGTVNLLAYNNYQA
Chain of UniProt P54292 (whole entry, looked up): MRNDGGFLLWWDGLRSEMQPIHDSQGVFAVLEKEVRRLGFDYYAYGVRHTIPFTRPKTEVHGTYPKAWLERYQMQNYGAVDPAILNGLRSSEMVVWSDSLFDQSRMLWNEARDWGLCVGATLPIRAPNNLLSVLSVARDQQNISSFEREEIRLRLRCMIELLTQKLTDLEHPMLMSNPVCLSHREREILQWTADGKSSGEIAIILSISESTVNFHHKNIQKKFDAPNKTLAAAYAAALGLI
Chain of UniProt Q9UKV0 (whole entry, looked up): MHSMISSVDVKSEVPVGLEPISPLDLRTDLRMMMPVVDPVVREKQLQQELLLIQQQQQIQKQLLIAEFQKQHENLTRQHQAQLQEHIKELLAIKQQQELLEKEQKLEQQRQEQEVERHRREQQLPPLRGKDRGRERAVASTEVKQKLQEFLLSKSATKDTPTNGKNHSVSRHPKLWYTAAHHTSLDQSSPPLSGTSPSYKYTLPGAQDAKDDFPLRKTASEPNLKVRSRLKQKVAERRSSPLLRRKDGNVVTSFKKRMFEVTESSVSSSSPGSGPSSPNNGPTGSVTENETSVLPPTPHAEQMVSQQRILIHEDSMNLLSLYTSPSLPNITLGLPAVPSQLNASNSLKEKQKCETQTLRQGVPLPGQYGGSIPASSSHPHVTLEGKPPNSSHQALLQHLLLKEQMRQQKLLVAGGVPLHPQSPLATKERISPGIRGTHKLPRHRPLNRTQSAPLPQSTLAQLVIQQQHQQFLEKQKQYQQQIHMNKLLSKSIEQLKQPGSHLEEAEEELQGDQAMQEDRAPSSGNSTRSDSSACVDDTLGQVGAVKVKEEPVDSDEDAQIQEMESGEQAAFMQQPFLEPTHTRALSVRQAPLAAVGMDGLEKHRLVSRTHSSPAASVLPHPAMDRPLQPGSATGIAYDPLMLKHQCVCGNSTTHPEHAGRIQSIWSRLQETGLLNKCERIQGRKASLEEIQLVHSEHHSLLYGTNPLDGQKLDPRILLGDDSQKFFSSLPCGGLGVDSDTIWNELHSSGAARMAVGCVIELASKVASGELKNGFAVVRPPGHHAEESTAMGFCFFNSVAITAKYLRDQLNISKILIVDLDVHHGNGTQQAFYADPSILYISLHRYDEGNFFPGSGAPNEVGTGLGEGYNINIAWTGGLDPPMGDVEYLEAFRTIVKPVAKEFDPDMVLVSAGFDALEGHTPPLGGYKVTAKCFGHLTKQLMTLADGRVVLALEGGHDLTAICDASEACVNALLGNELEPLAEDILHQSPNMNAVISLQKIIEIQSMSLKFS

SMILES | target | assay | system | conditions | scale | remaining activity
C[C@](C(=O)NC1CCOCC1)(c1cncnc1)N(C(=O)[C@H](F)Cl)c1ccc(OC(F)(F)Cl)cc1 | Proteinase K (PROK, Engyodontium album, UniProt P06873) | enzyme activity, inhibitor | – | 10 µM | – | 101%
COc1ccccc1-c1ccncc1C(=O)Nc1nnc(OCc2ccc(Cl)cc2)s1 | DNA polymerase theta, helicase domain (POLQ, Homo sapiens, UniProt O75417) | ATPase activity, ADP-Glo | – | 0.24 µM, with: ATP 100 µM | – | 30%
C=C1C[C@@]2(C(=O)OC)C=C(C(=O)Nc3cccc(C(=O)Nc4ccc(Nc5nccc(-c6cccnc6)n5)c(C)c4)c3)C(=O)[C@@H]1C2 | MAPK8 | kinase activity, inhibitor | – | 2.788e-05 µM, unit not given, with: 10 mM glutathione | baseline: no inhibitor | 0.998
Nc1ncc(-c2cc(-c3cnn(CC(F)(F)F)c3)ncc2F)nc1C(=O)NC1CNCC(F)C1 (centres unmarked) | CDK6 with cyclin D2 | enzyme activity | – | 1 µM | baseline: DMSO control | 86.2%
CC(C)[C@@H]1NC(=O)[C@H](Cc2ccccc2)NC(=O)CSC[C@@H](C(N)=O)NC(=O)[C@H](CCC(=O)O)NC(=O)[C@H](CO)NC(=O)[C@H](Cc2c[nH]c3cccc(Cl)c23)NC(=O)[C@H](C2CCCCC2)NC(=O)[C@H](C(C)C)NC(=O)[C@H](Cc2ccc(O)cc2)NC(=O)[C@H](CC(=O)O)NC(=O)[C@H](Cc2c[nH]c3ccccc23)NC(=O)[C@H](Cc2ccc(N)nc2)NC(=O)[C@H](Cc2c[nH]c3ccc(Cl)cc23)NC(=O)[C@H](CCC(=O)O)NC1=O | IL1RL2 | reporter gene (SEAP), inhibitor, HEK-Blue IL-36R reporter | HEK-Blue IL-36R cells | 0.046 µM, 6 h, with: IL-36γ 1 ng/mL | – | 109%
Cn1nnnc1Sc1c2c(c(C#N)c3nc4ccccc4n13)CCCC2 | P4HB (Homo sapiens, UniProt P07237) | insulin turbidity | – | 100 µM | – | 92.2 ± 6.1%
Cc1ccc(C[C@H](NC(=O)CN2CCCc3cc4cc(C(=O)NCCNC(=O)CCCC[C@@H]5SC[C@@H]6NC(=O)N[C@@H]65)c(=O)oc4cc32)C(=O)NC/C=C/S(=O)(=O)c2ccccc2)cc1 | Cathepsin K (CTSK, Homo sapiens, UniProt P43235) | enzyme activity, inhibitor, fluorescence | – | 5 µM | – | 37%
CCCC(=O)C#Cc1ccc(F)c(F)c1 | rhlR (Pseudomonas aeruginosa, UniProt P54292) | reporter gene, inhibitor, quorum sensing reporter strain | – | 10 µM, 1.5 h | baseline: DMSO | 75%
O=C=[N][Ru-4]123([n]4c5ccc(O)cc5c5c6c(c7cc(F)c[n+]1c7c54)C(=O)NC6=O)[S+]1CC[S+]2CC[S+]3CC1 (centres unmarked) | AMPK (rat) | kinase activity, inhibitor | – | 100 nM, with: 10 µM ATP | – | 93%
COc1ccc(NC(=O)Nc2ccc3c(c2)C(=O)N(C(C)CO)CC(C)C(CN(C)Cc2ccc4c(c2)OCO4)O3)cc1 (centres unmarked) | Map2k4 (Mus musculus, UniProt P47809) | kinase activity, KinaseProfiler | – | 0.03 µM, species mouse | baseline: control | 97%
COC(=O)[C@]1(C(C)C)C=C(C(=O)Nc2cccc(C(=O)Nc3ccc(Nc4nccc(-c5cccnc5)n4)c(C)c3)c2)C(=O)CC1 | MAPK8 | kinase activity, inhibitor | – | 14.81 µM, unit not given, with: 10 mM glutathione | baseline: no inhibitor | 0.181
COC(=O)c1ccc2c(c1)nc(NC(=O)c1ccccc1)n2CCCc1ccccc1 | HDAC9 (Homo sapiens, UniProt Q9UKV0) | enzyme activity, inhibitor | – | 10 µM | – | 93%
CN(Cc1cc(C2CC2)on1)C(=O)c1cccc(-c2ccc3c(c2)CCO3)c1 | Acetyl-CoA synthetase (Cryptococcus neoformans, UniProt J9VFT1) | enzyme activity, inhibitor, coupled pyrophosphate | – | 31.3 µM | – | -3.04% and 3.04%
N#Cc1cnc2sc(C(=O)O)cc2c1N1CCc2[nH]nc(C(=O)N[C@@H](CC(=O)NCCOCCN3CCOCC3)c3cccc(Br)c3)c2C1 | IL1RL2 | reporter gene (SEAP), inhibitor, HEK-Blue IL-36R reporter | HEK-Blue IL-36R cells | 33.33 µM, 6 h, with: IL36A 0.01 ng/mL | – | 27%
CN1C[C@@H](c2c[nH]c3cc(Br)ccc23)NC[C@@H]1c1c[nH]c2cc(Br)ccc12 | CDK6 with cyclin D2 | enzyme activity, inhibitor | – | 10 µM | – | 96%
COC(=O)[C@@]1(C)C=C(C(=O)Nc2cccc(C(=O)Nc3ccc(Nc4nccc(-c5cccnc5)n4)c(C)c3)c2)C(=O)CC1 | MAPK1 (Homo sapiens, UniProt P28482) | enzyme activity, inhibitor | – | 133.3 µM, unit not given | baseline: vehicle | 0.47 and 0.382 and 0.476
CC(C)[C@@H]1NC(=O)[C@H](Cc2ccccc2)NC(=O)CSC[C@@H](C(N)=O)NC(=O)[C@H](CCC(=O)O)NC(=O)[C@H](CO)NC(=O)[C@H](Cc2c[nH]c3ccccc23)NC(=O)[C@H](C(C)C)NC(=O)[C@H](C(C)C)NC(=O)[C@H](Cc2ccc(O)cc2)NC(=O)[C@H](CC(=O)O)NC(=O)[C@H](Cc2c[nH]c3ccccc23)NC(=O)[C@H](Cc2ccc(O)cc2)NC(=O)[C@H](Cc2c[nH]c3ccccc23)NC(=O)[C@H](CCC(=O)O)NC1=O | IL1RL2 | IL-8 release, antagonist | A-431 | 20 µM, 18 h, with: IL-36 10 ng/mL | baseline: untreated | 8.76%
